# Experimental data of several laboratories.
# Every numbered part comes from another study and shows a few of its results, in no order.
# Sequence of UniProt Q15208 (whole entry, looked up): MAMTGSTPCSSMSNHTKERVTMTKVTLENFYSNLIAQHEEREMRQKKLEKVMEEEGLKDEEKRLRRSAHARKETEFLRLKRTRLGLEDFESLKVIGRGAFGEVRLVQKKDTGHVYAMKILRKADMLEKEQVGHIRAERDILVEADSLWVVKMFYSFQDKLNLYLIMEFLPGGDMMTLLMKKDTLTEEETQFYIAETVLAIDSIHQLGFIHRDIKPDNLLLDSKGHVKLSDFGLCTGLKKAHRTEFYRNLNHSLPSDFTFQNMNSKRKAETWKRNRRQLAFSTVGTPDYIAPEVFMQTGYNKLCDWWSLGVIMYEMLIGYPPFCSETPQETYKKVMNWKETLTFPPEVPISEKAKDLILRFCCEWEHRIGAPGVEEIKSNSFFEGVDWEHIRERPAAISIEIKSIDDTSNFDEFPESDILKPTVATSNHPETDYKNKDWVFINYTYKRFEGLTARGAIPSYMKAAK
# Sequence of UniProt P54756 (whole entry, looked up): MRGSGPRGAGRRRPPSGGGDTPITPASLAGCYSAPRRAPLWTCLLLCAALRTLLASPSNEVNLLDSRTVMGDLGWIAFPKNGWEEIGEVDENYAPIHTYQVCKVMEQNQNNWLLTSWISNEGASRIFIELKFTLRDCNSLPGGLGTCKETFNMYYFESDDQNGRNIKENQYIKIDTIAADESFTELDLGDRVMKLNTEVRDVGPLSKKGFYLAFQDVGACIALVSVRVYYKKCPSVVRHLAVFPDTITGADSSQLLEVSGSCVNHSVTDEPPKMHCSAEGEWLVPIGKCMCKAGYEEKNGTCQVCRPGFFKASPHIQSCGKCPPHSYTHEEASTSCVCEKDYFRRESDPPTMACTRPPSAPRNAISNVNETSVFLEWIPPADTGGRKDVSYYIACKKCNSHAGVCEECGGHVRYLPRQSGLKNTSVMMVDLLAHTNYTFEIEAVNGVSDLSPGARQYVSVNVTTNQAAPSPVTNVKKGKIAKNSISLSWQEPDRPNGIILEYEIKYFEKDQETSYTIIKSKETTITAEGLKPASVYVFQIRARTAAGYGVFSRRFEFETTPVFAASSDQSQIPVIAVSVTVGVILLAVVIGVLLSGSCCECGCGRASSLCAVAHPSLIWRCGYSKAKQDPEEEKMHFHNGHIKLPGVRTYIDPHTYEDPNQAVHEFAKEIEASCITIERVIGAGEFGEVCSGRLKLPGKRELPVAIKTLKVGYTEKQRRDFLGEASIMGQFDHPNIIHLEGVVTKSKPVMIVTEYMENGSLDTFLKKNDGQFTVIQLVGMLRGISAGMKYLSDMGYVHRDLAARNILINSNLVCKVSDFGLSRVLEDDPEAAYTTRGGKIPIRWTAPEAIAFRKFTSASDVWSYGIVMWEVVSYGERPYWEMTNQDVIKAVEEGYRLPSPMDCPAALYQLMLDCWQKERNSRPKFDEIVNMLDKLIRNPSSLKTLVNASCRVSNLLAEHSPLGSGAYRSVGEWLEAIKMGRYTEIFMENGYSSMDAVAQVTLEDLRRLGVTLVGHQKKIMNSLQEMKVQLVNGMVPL
# Sequence of UniProt P31749 (whole entry, looked up): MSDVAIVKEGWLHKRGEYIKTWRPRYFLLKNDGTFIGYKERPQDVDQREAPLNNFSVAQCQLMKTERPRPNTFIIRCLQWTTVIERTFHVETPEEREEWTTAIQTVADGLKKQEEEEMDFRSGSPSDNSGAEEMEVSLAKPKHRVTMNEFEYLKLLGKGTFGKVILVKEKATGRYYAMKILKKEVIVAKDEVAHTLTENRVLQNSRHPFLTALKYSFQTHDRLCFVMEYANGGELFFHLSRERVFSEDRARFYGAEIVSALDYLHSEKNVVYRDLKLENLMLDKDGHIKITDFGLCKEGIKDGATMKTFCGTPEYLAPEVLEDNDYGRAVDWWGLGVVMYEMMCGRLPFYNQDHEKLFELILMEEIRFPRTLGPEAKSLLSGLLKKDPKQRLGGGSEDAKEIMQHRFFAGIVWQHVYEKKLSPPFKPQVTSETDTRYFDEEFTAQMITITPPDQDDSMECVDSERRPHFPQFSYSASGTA
# Sequence of UniProt Q00532 (whole entry, looked up): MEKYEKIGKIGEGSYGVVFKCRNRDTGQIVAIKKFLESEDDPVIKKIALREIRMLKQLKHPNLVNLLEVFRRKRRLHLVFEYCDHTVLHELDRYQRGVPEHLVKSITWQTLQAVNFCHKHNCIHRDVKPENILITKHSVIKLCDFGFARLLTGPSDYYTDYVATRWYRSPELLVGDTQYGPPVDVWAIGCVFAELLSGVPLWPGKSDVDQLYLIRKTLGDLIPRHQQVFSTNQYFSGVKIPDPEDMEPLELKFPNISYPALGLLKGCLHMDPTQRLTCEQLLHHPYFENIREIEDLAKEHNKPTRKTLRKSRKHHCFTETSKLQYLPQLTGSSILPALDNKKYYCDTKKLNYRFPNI
# Sequence of UniProt Q8NG66 (whole entry, looked up): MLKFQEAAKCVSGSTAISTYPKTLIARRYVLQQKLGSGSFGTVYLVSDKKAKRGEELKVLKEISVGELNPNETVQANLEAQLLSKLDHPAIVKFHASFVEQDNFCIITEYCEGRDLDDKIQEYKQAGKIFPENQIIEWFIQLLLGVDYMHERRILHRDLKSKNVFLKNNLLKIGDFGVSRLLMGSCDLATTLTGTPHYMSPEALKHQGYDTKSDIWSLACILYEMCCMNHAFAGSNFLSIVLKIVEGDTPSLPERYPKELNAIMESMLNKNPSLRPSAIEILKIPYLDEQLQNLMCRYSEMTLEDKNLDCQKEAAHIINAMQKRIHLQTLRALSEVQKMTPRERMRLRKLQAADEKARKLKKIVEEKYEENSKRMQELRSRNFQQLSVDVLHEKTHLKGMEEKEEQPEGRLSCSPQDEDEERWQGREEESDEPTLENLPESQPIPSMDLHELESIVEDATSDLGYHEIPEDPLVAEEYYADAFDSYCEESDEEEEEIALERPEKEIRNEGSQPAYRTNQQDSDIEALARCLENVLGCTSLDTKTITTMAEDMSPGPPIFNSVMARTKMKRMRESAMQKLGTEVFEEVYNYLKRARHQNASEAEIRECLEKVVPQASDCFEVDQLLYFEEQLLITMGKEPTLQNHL
# Sequence of UniProt Q15349 (whole entry, looked up): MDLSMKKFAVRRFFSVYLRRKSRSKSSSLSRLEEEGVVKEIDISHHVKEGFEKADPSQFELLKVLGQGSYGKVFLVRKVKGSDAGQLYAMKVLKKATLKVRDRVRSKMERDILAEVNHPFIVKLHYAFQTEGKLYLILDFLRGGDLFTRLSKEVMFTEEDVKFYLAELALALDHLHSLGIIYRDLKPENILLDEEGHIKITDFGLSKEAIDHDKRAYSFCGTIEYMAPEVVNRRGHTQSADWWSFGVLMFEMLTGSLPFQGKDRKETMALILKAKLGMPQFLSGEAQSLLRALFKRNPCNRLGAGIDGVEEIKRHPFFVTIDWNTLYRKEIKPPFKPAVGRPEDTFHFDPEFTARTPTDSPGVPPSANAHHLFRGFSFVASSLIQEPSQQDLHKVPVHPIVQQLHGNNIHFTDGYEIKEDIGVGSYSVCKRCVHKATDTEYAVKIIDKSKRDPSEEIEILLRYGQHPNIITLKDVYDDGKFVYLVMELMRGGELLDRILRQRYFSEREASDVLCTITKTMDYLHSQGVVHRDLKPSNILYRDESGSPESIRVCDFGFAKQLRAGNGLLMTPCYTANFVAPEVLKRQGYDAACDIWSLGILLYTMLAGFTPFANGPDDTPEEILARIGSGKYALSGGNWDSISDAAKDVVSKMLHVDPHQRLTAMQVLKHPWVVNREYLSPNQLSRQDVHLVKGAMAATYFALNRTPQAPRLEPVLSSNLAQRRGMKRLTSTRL

# Sample 1
# Target: STE20-like serine/threonine-protein kinase (SLK, Homo sapiens, UniProt Q9H2G2)
# Sequence of UniProt Q9H2G2 (whole entry, looked up): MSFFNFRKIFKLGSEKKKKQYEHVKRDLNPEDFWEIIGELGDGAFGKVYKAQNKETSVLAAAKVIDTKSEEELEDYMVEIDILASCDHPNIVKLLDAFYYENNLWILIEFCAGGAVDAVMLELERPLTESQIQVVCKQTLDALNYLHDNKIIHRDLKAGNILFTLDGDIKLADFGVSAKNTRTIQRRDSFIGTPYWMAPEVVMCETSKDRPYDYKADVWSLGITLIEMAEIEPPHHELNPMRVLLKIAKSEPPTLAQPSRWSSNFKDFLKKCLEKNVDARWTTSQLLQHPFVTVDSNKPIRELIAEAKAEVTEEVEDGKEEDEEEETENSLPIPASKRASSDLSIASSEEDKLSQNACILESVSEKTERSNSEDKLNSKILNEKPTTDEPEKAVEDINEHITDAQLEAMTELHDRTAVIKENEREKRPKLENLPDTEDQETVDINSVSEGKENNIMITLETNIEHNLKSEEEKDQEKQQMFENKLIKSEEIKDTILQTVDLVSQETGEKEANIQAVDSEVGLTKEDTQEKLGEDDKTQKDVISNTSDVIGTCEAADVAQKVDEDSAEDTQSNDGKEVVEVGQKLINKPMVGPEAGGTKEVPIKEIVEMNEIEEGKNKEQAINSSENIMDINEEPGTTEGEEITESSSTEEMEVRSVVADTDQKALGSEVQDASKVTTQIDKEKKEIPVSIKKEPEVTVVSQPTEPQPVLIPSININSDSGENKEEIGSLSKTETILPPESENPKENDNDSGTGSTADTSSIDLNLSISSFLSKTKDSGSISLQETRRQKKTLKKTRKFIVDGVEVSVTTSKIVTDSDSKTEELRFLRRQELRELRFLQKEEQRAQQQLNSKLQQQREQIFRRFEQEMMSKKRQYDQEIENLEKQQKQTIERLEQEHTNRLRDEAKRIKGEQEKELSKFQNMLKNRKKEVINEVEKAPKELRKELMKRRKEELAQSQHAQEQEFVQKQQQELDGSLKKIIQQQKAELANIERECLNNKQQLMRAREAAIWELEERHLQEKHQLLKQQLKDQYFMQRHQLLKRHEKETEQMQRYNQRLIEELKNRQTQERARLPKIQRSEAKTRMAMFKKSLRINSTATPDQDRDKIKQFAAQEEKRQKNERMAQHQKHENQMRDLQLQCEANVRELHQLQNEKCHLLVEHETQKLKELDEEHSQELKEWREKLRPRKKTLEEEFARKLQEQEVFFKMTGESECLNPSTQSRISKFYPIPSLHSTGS
# Observed: enzyme activity
# Action: inhibitor
# Concentration: 0.5 µM
# Reference: control
Compound,remaining activity [%]
CCOc1nc(NC(=O)Cc2cc(OC)ccc2OC)cc(N)c1C#N,103
CN(C)C[C@H]1CCn2c(c(C3=C(c4cn(C)c5ccccc45)C(=O)NC3=O)c3ccccc32)C1,83.1
O=C(NC(NC(=S)Nc1ccc(F)c([N+](=O)[O-])c1)C(Cl)(Cl)Cl)C(c1ccccc1)c1ccccc1 (stereo not drawn),95.2
COc1cc2ncnc(Nc3ccc(O)c(Br)c3)c2cc1OC,50.3
COc1cc2ncnc(Nc3cccc(Cl)c3)c2cc1OC,64.6
C[C@@H]1CCN(C(=O)CC#N)C[C@@H]1N(C)c1ncnc2[nH]ccc12,89.2
CCN(CC)CCNC(=O)c1c(C)[nH]c(/C=C2\C(=O)Nc3ccc(Cl)cc32)c1C,38
Cc1cn(-c2cc(NC(=O)c3ccc(C)c(Nc4nccc(-c5cccnc5)n4)c3)cc(C(F)(F)F)c2)cn1,102
Cn1nc2c3c(cccc31)C(=O)c1ccccc1-2,103
Nc1cccc(-c2cc3c(Oc4cccc(O)c4)ncnc3[nH]2)c1,64.1
N#Cc1c(NC(=O)c2cccc3ccccc23)sc2c1CCCC2,99.2
N#C/C(=C\c1ccc(O)c(O)c1)C(=O)NCc1ccccc1,99.1
Cc1cc2ncc(-c3ccccc3)nc2cc1C,91.9
Cc1nc2cc3nc(-c4cccs4)cnc3cc2n1C,94.5
c1ccc(-c2cnc(Nc3ccc(OCCN4CCCC4)cc3)s2)cc1,96.7
O=C1c2ccccc2-c2n[nH]c3cccc1c23,91.6
O=c1cc(-c2cccc3c2Sc2ccccc2S3)oc(N2CCOCC2)c1,93.5
COc1cc2c(cc1OC)-c1[nH]nc(Nc3cccc(F)c3)c1C2,95.4
Ic1cccc(CSc2nnc(-c3ccncc3)o2)c1,98.6
O=C(Nc1cccc(Nc2nccc(Nc3cccc(C(F)(F)F)c3)n2)c1)C1CC1,92.9
CCN(CC)C(=O)c1ccc(Nc2nc(OCC3CCCCC3)c3[nH]cnc3n2)cc1,71.2
O=C1C(Cl)=C(N2C(=O)CCC2=O)C(=O)c2ccccc21,104
CN([C@@H](Cc1ccc(OS(=O)(=O)c2cccc3cnccc23)cc1)C(=O)N1CCN(c2ccccc2)CC1)S(=O)(=O)c1cccc2cnccc12,101
c1ccc(-c2[nH]ncc2-c2ccnc3ccccc23)nc1,104

# Sample 2
# Species: human
# Sample: microsomes or S9
# Concentration: 2 µM
# Time: 0.5 h
SMILES,remaining compound
O=C1CC(c2ccccc2Cl)c2cc3c(cc2N1)CCC3 (stereo not drawn),33.3%
Cc1cn(C)c(CC(=O)NCCCN2CCC(Cc3ccccc3)CC2)c1C(=O)O,94.5%
CCN(CC)CCCNc1oc(-c2ccco2)nc1S(=O)(=O)c1ccc2c(c1)OCCO2,41.9%
COc1ccc(Cc2nc3c4cnn(-c5cc(Cl)ccc5Cl)c4ncn3n2)cc1,73.8%
Cn1c2ccccc2n2c(=O)n(Cc3cscn3)nc12,86.3%
CCCC(=O)c1c[nH]c2c(OCC)nccc2c1=O,36.2%
CCC(CC)C(=O)N1CCN(S(=O)(=O)c2ccccc2)CC1,88%
CCN(CC)C(=O)[C@@H]1C[C@@H](NC(=O)Cn2ccc3ccccc32)CN1C,58.9%
CO[C@H]1C[C@H](C(=O)Nc2ccncc2C(C)=O)N(S(C)(=O)=O)C1,> 100%
CN1C(=O)C(O)(C2OC(C)(C)CCC2=O)c2ccccc21 (stereo not drawn),46.3%
Nc1cccc(COc2cc(Cl)c(Cl)cc2Cl)c1,92.2%

# Sample 3
# Cell line: HaCaT
# Concentration: 100 µM
# Time: 18 h
SMILES,viability [%]
C[C@@H](NCCc1ccc(O)cc1)[C@@H](O)c1ccc(O)cc1 (racemic),111
C[C@@H]1CC(=O)NN=C1c1ccc(NN=C(C#N)C#N)cc1,96.3
CCN(CC)C(=S)SSC(=S)N(CC)CC,53
CC(S)C(=O)NCC(=O)O (stereo not drawn),107
COc1c(C)c2c(c(O)c1C/C=C(\C)CCC(=O)OCCN1CCOCC1)C(=O)OC2,110
CC1=C(C(=O)O)N2C(=O)[C@@H](NC(=O)[C@H](N)c3ccc(O)cc3)[C@H]2SC1,118
O=C1O[C@H](CO)[C@@H](O)[C@H](O)[C@H]1O,107
C=C1[C@H](CO)[C@@H](O)C[C@@H]1n1cnc2c(=O)[nH]c(N)nc21,107
CC1(C)CCC(C)(C)c2cc(NC(=O)c3ccc(C(=O)O)cc3)ccc21,55.7
CN[C@@H]1[C@H](O)[C@H](NC)[C@H]2O[C@@]3(O)C(=O)C[C@@H](C)O[C@H]3O[C@@H]2[C@H]1O,112
COc1cc(C(=O)NC2CCCNC2)cc(OC)c1OC (stereo not drawn),108
CC(C)c1cc2c(cc1S(=O)(=O)O)[C@@]1(C)CCC[C@@](C)(C(=O)O)[C@@H]1CC2,111

# Sample 4
# SMILES: CN(C)CC#Cc1ccc(OCCCc2sc(N3CCc4cccc(C(=O)Nc5nc6ccccc6s5)c4C3)nc2C(=O)O)c(F)c1
# Observed: cell-free assay
# Technique: competition with immobilised ligand
# Concentration: 1 µM
target,remaining binding
"Serine/threonine-protein kinase 38 (STK38, Homo sapiens, UniProt Q15208)",76%
"Myosin light chain kinase, smooth muscle (MYLK, Homo sapiens, UniProt Q15746)",81%
"Protein kinase C delta type (PRKCD, Homo sapiens, UniProt Q05655)",100%
"Cyclin-dependent kinase-like 5 (CDKL5, Homo sapiens, UniProt O76039)",96%
"Ephrin type-A receptor 5 (EPHA5, Homo sapiens, UniProt P54756)",98%
"1-phosphatidylinositol 3-phosphate 5-kinase (PIKFYVE, Homo sapiens, UniProt Q9Y2I7)",100%
"Cytoplasmic tyrosine-protein kinase BMX (BMX, Homo sapiens, UniProt P51813)",82%
"Serine/threonine-protein kinase Nek11 (NEK11, Homo sapiens, UniProt Q8NG66)",100%
"Serine/threonine-protein kinase 4 (STK4, Homo sapiens, UniProt Q13043)",100%
"RAC-alpha serine/threonine-protein kinase (AKT1, Homo sapiens, UniProt P31749)",100%
"Epithelial discoidin domain-containing receptor 1 (DDR1, Homo sapiens, UniProt Q08345)",100%
"Ribosomal protein S6 kinase alpha-2, C-terminal kinase domain (RPS6KA2, Homo sapiens, UniProt Q15349)",94%
"Receptor-interacting serine/threonine-protein kinase 1 (RIPK1, Homo sapiens, UniProt Q13546)",92%
"Cyclin-dependent kinase-like 1 (CDKL1, Homo sapiens, UniProt Q00532)",100%
"Epidermal growth factor receptor (EGFR, Homo sapiens, UniProt P00533, L861Q)",100%
"Hepatocyte growth factor receptor (MET, Homo sapiens, UniProt P08581)",61%
